Experimental data of several laboratories.
Compare with care: the assays were run in different laboratories. ± gives the spread as reported.

CCOC(=O)[C@@H]1Cc2c(cc([N+](=O)[O-])cc2[N+](=O)[O-])[C@H](O)[C@]12C(=O)Nc1ccc(Br)cc12  Cmax (Sprague-Dawley rat, plasma; oral, 15 mg/kg): 5900 ng/mL
CCN(C)C(=O)Oc1ccccc1/C=C1\Cc2cc(OC)c(OC)cc2C1=O  Cmax (male Sprague-Dawley rat, plasma; oral, 100 mg/kg, single dose): 350 ng/mL
CC(C)(CCCC/C=C/CCCCCC(C)(C)C(=O)O)C(=O)O  Cmax (blood; oral, concentration not given, multiple doses): > 100000 ng/mL
COc1ccc(F)cc1S(=O)(=O)Nc1cnc2c(c1)C(=O)NCCO2  Cmax (male C57BL/6 mouse, plasma; oral, 0.1 mg/kg, single dose): 16.5 ng/mL
O=c1cc(-c2ccccc2)oc2c(Br)c(O)c(O)c(O)c12  Cmax (C57BL/6 mouse, plasma; oral, 250 mg/kg, single dose): 6440 ng/mL
CC[C@H](C)C(=O)N1CCC(NC(=O)Nc2ccc(OC(F)(F)F)c(F)c2)CC1  Cmax (human; oral, 8 mg, fasted, geometric LS mean): 35.3 ng/mL
CCCCCCCC(=O)OC[C@H](NC(=O)[C@H](CO)NC(=O)CN)C(=O)N[C@@H](Cc1ccccc1)C(=O)N[C@@H](CC(C)C)C(=O)N[C@@H](CO)C(=O)N1CCC[C@H]1C(=O)N[C@@H](CCC(=O)O)C(=O)N[C@@H](Cc1cnc[nH]1)C(=O)N[C@@H](CCC(N)=O)C(=O)N[C@@H](CCCNC(=N)N)C(=O)N[C@H](C(=O)N[C@@H](CCC(N)=O)C(=O)N[C@@H](CCC(N)=O)C(=O)N[C@@H](CCCNC(=N)N)C(=O)N[C@@H](CCCCN)C(=O)N[C@@H](CCC(=O)O)C(=O)N[C@@H](CO)C(=O)N[C@@H](CCCCN)C(=O)N[C@@H](CCCCN)C(=O)N1CCC[C@H]1C(=O)N1CCC[C@H]1C(=O)N[C@@H](C)C(=O)N[C@@H](CCCCN)C(=O)N[C@@H](CC(C)C)C(=O)N[C@@H](CCC(N)=O)C(=O)N1CCC[C@H]1C(=O)N[C@@H](CCCNC(=N)N)C(=O)O)C(C)C  Cmax (two-site ELISA; human, plasma; intravenous infusion, 5 µg/kg/h, 65 min infusion): 19.6 ± 2.3 ng/mL
CCCCCCCCCCCCCC(=O)N[C@@H](Cc1ccccc1)C(=O)N[C@@H](CCC(=O)O)C(=O)N[C@@H](CCC(=O)O)C(=O)N[C@@H](CCC(=O)O)C(=O)N[C@@H](CCCNC(=N)N)C(=O)N[C@@H](CC(C)C)C(=O)O  Cmax (whole blood; intravenous, 5 mg/kg, HLPN formulation): 33400 ng/mL
CCCCCCCC(=O)OC[C@H](NC(=O)[C@H](CO)NC(=O)CN)C(=O)N[C@@H](Cc1ccccc1)C(=O)N[C@@H](CC(C)C)C(=O)N[C@@H](CO)C(=O)N1CCC[C@H]1C(=O)N[C@@H](CCC(=O)O)C(=O)N[C@@H](Cc1cnc[nH]1)C(=O)N[C@@H](CCC(N)=O)C(=O)N[C@@H](CCCNC(=N)N)C(=O)N[C@H](C(=O)N[C@@H](CCC(N)=O)C(=O)N[C@@H](CCC(N)=O)C(=O)N[C@@H](CCCNC(=N)N)C(=O)N[C@@H](CCCCN)C(=O)N[C@@H](CCC(=O)O)C(=O)N[C@@H](CO)C(=O)N[C@@H](CCCCN)C(=O)N[C@@H](CCCCN)C(=O)N1CCC[C@H]1C(=O)N1CCC[C@H]1C(=O)N[C@@H](C)C(=O)N[C@@H](CCCCN)C(=O)N[C@@H](CC(C)C)C(=O)N[C@@H](CCC(N)=O)C(=O)N1CCC[C@H]1C(=O)N[C@@H](CCCNC(=N)N)C(=O)O)C(C)C  Cmax (mouse, plasma; intraperitoneal, 7.2 mg/kg): 171 ng/mL
Cc1cc(Nc2nc(C[C@@]3(C(=O)O)CCN(Cc4cccc(Cl)c4F)[C@H](C)C3)cc(C)c2F)n[nH]1  Cmax (BALB/c nude mice, female, NCI-H446 xenograft, plasma; oral, 10 mg/kg single): 14700 ng/mL
CCc1c2c(nc3ccc(OC4OC(C(=O)O)C(O)C(O)C4O)cc13)-c1cc3c(c(=O)n1C2)COC(=O)C3(O)CC (stereo not shown)  Cmax (human patients, plasma; intravenous, 56 mg/m^2 of parent drug): 86 ng/mL
C[C@H](CCC(=O)N[C@@H](CCCCNC(=O)C(F)(F)F)C(=O)O)[C@H]1CC[C@H]2[C@@H]3[C@H](O)C[C@@H]4C[C@H](O)CC[C@]4(C)[C@H]3C[C@H](O)[C@]12C  Cmax (C57BL/6J mice, gallbladder; oral, 50 mg/kg): 11100 ± 2400 µM
CC1(C)C(=O)N(c2ccc(C#N)c(C(F)(F)F)c2)C(=S)N1c1ccc(C(N)=O)c(F)c1  Cmax (human, male, plasma; oral, 160 mg, single dose, after high-fat meal): 463 ± 128 ng/mL
C[C@]12CC[C@H](OC(=O)NC3CCNCC3)C[C@H]1CC[C@@H]1[C@@H]2CC[C@]2(C)[C@@H](c3ccc(=O)oc3)CC[C@]12O  Cmax (male Sprague-Dawley rat, plasma; intravenous, 5 mg/kg, single dose): 5220 ng/mL
CC(C)[C@H]1NC(=O)C[C@H]2/C=C/CCSSC[C@@H](NC1=O)C(=O)N[C@H](Cc1cccc3ccccc13)C(=O)NCC(=O)O2  Cmax (nude mouse, blood; oral, 24 mg/kg): 7.11 ng/mL
CCCCCCCC(=O)NC[C@H](NC(=O)[C@H](CO)NC(=O)CN)C(=O)N[C@@H](Cc1ccccc1)C(=O)N[C@@H](CC(C)C)C(=O)N[C@@H](CO)C(=O)N1CCC[C@H]1C(=O)N[C@@H](CCC(=O)O)C(=O)N[C@@H](Cc1c[nH]cn1)C(=O)N[C@@H](CCC(N)=O)C(=O)N[C@@H](CCCNC(=N)N)C(=O)N[C@H](C(=O)N[C@@H](CCC(N)=O)C(=O)N[C@H](C(=O)N[C@@H](CCCNC(=N)N)C(=O)N1CCC[C@H]1C(=O)N1CCC[C@H]1C(=O)N[C@@H](Cc1c[nH]cn1)C(=O)N[C@@H](CCCCN)C(=O)N[C@@H](C)C(=O)N1CCC[C@H]1C(=O)N[C@@H](Cc1c[nH]cn1)C(=O)N[C@H](C(=O)N[C@H](C(=O)O)C(C)C)C(C)C)C(C)C)C(C)C  Cmax (mouse, plasma; intraperitoneal, 1.2 mg/kg): 36.3 ng/mL
CC(C)C[C@@H](NC(=O)[C@@H](Cc1ccccc1)NC(=O)[C@H](N)Cc1ccccc1)C(=O)N[C@H](CCCCN)C(=O)N1CCC(N)(C(=O)O)CC1  Cmax (human, plasma; intravenous, 5 µg/kg): 61.9 ng/mL
CC(=CCC(O)C(C)=Cc1csc(C)n1)CC=CC(C)C(O)C(C)C(=O)C(C)(C)C(O)CC(=O)O (stereo not shown)  Cmax (human, plasma; intravenous infusion, 27 mg/m2 KOS-1584, 3 h infusion, cycle 1): 14.3 ± 3.64 ng/mL
[2H]C([2H])([2H])C([2H])([2H])C([2H])([2H])OC(C(=O)OC1CCNCC1)(c1ccccc1)c1ccccc1  Cmax (healthy Japanese male subjects, plasma; oral, 18 mg once daily, day 16, fed, mean): 180 ng/mL
